Experimental data pooled from the literature.
Lines come from different studies, so protocols differ. ± marks the error that the study gave.

| system | setting | AUC(0-t) | Structure (SMILES) |
| --- | --- | --- | --- |
| Sprague-Dawley rat, male, lean, plasma | intravenous, 4 mg/kg | 32.6 ± 8.98 ng·h/mL | COc1ccc([C@@H]2CC(=O)c3c(O)cc(O[C@@H]4O[C@H](CO)[C@@H](O)[C@H](O)[C@H]4O[C@@H]4O[C@@H](C)[C@H](O)[C@@H](O)[C@H]4O)cc3O2)cc1O |
| Sprague-Dawley rats, male, plasma | intravenous infusion, 6 mg/kg, day 1, multiple dosing | 1490 ng·h/mL | C=C(NC(=O)c1csc(-c2nc3c(cc2O)-c2nc(cs2)C(=O)NC(C(C)O)C(=O)NC(=C(C)OC)c2nc(cs2)C(=O)NC2c4nc(cs4)C(=O)NC(COC(=O)c4c5c6c(cccc6n4O)COC(=O)C(OC4CC(C)(O)C(N(C)C)C(C)O4)C2OC5)c2nc-3cs2)n1)C(N)=O (centres unmarked) |
| Sprague-Dawley rat, plasma | intravenous, 1.0 mg/kg | 1140 ± 135 ng·h/mL | O=C(O)c1c(O)cc(O[C@@H]2O[C@H](CO)[C@@H](O)[C@H](O)[C@H]2O)cc1/C=C/c1ccccc1 |
| Sprague-Dawley rat, male, plasma | oral, 20 mg/kg | 11000 ng·h/mL | O=C(NS(=O)(=O)c1cccs1)c1cc2ccccc2n1Cc1ccc(Br)c2ccccc12 |
| Sprague-Dawley rats, both sexes, whole blood | intravenous, 5 mg/kg single dose | 3980 ± 960 ng·h/mL | CCCC[C@H](OC(C)=O)c1ccccc1C(=O)O |
| rat, Sprague-Dawley | oral, 8 mg/kg | 6.44 ng·h/mL | CNC(=O)C1CCCN(C(=O)C2CC3CCC2N3C(=O)[C@@H]2C[C@@H](O)CN2C(=O)NCc2cccc(Cl)c2F)C1 (mixture of isomers) |
| male Sprague-Dawley rats, plasma | oral, 1 mg/kg, 24 h, citrate ester | 2.66 µM·h | COCCN(C)CC(=O)NC(Cc1ccc(-c2ccccc2)cc1)B(O)O (centres unmarked) |
| Sprague-Dawley rat, both sexes, plasma | oral gavage, 5 mg/kg | 6640 ± 950 ng·h/mL | OC1(C(F)(F)F)CCN(c2nc(Nc3ccnc(C(F)(F)F)c3)nc(-c3cccc(C(F)(F)F)n3)n2)C1 (centres unmarked) |

Excerpt of the above:
| system | setting | AUC(0-t) | Structure (SMILES) |
| --- | --- | --- | --- |
| rat, Sprague-Dawley | oral, 8 mg/kg | 6.44 ng·h/mL | CNC(=O)C1CCCN(C(=O)C2CC3CCC2N3C(=O)[C@@H]2C[C@@H](O)CN2C(=O)NCc2cccc(Cl)c2F)C1 (mixture of isomers) |
